Assay results gathered from unrelated publications.
Parts stem from different laboratories: compare values within a part only. Changes are numbered by the printed parent chain.

Study 1 — target: CCNB2, cyclin fold, Cln2 fusion (human); method: yeast growth competition, sequencing; medium: yeast; setting: weak parent motif; reference: not given; reading: higher = stronger binding
Starting sequence: RBL1 docking peptide (human); GSAKRRLFGEDPP; partner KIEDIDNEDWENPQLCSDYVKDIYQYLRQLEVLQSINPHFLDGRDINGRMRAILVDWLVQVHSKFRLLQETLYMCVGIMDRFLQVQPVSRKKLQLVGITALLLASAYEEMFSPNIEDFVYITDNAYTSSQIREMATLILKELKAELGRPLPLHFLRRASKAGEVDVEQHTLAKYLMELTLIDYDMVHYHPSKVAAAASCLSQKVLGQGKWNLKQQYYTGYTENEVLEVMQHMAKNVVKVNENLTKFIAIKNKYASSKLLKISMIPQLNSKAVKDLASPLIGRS
Variant | normalised enrichment score
GSAKRRLFGEEPP [D11E] | 0.0656
GKAKRRLFGEDPP [S2K] | 0.119
GTAKRRLFGEDPP [S2T] | 0.198
GSAKRRLFGEDKP [P12K] | 0.264
GSAKRRYFGEDPP [L7Y] | 0.0102
GSAKRRLFGPDPP [E10P] | 0.0595
GSAKRTLFGEDPP [R6T] | -0.202
GSIKRRLFGEDPP [A3I] | 0.042
GSAKRDLFGEDPP [R6D] | -0.636
GSAKRRLFTEDPP [G9T] | 0.391
GSAKRRLFGEFPP [D11F] | 0.186
GSAKRKLFGEDPP [R6K] | 0.481
GSAKRRLFGEDPE [P13E] | -0.581
GLAKRRLFGEDPP [S2L] | -0.076
GVAKRRLFGEDPP [S2V] | 0.157
GSAKRRRFGEDPP [L7R] | 0.245
GSEKRRLFGEDPP [A3E] | 0.149
GSAKRRWFGEDPP [L7W] | 0.396
GSAKRRLRGEDPP [F8R] | 0.308
GSAKRRLFGEDVP [P12V] | 0.0372
GSAKRRNFGEDPP [L7N] | 0.329
GSAKRRLFGADPP [E10A] | 0.403
CSAKRRLFGEDPP [G1C] | 0.239
GSAKRRLFKEDPP [G9K] | 0.455
GSANRRLFGEDPP [K4N] | -0.185

Study 2 — target: BATF3, bZIP domain (human); method: DHFR protein complementation; medium: yeast; reference: wild-type JUN-FOS pair; reading: higher = stronger binding
Setting: single substitutions, most at no-binding floor
Starting sequence: JUN, bZIP domain (human); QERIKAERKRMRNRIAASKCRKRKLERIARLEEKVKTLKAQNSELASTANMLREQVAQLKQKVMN; partner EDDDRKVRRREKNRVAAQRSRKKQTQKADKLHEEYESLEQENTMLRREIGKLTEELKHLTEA
Variant | binding fitness [natural log]
L38G | -0.0276
Q55D | 0.00151
L45K | -0.409
E33C | 0.133
A40V | 0.298
K39H | 0.173
Q55E | 0.117
R53V | -0.00141
R53C | -0.0877
T37V | 0.209
Q41V | 0.167
A49C | 0.167
E44R | 0.161
I28C | 0.156
E33N | 0.117
T37Y | 0.265
E54Y | 0.193
K34A | 0.268
A40G | 0.179
E32M | 0.115
E44C | 0.117
E54N | 0.192
M51T | 0.277
L38Y | -0.112
L45V | -0.465

Study 3 — method: EMSA with sequencing; molecule type: double-stranded DNA, one strand shown; medium: in vitro; concentration: 10 and 20 nM; reference: negative control set to 0; reading: higher = stronger binding
Target: Hepatocyte nuclear factor 3-alpha (Foxa1, Mus musculus, UniProt P35582, residues 1-468, full length assumed)
Chain of UniProt P35582 (whole entry, looked up): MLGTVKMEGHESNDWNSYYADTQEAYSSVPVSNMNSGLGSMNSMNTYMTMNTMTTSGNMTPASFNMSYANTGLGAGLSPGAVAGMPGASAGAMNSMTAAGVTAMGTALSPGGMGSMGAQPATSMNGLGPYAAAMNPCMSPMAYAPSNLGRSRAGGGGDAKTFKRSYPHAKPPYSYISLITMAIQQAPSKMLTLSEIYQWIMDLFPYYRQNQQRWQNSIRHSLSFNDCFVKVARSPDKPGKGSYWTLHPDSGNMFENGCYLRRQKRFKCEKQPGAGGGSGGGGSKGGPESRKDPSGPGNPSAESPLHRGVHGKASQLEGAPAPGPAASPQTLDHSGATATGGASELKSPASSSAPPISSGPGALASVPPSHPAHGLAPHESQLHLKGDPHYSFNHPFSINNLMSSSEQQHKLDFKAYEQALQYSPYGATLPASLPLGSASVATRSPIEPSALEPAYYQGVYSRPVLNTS
Setting: whole designed probe, mean of two concentrations, ends assumed
Shared flanks, not repeated: GTGAGCGGTGCCCATTGATGGGGAAC … TTTCACTGGGATCGTGGGGAC
Oligonucleotide | normalised bound fraction [ratio]
CCTGTGGGATAACATCAAGTGCTCTAACGTAAGTATCACTGCAGTCCTGGGAAGGGGCAGGGCGGGACTATTTGAAAACATGATGACTAAATGTAAATACTCAAGGTATGATGACACTGTATGCAGAGTACTCAACACAAAGGGTTCAGTGTTAAATGTAGACTTACACGGGTATATGGTACCCACAACTCAA | 0.266
TCCACAGTAGAAACGAAGGAGATGACAGATACCCCGGCACCAAAACTGACACCAGGTTTTTGTTGCTTCTTCCACTATATAATGGAGAAGTTCTGTTTACTCTAGATGTGCATCTACTGTTAACATTGGCTTAAGGAAACCCAAGAAACTGAATCACATCAAAGGTATGTCAGAGGTATGTGAACCAGAGCAA | 0.255
TAACTCCCAAAAAACACACAGAAAGCCATTACAAAGCATAAAACAGACCAAGGAAAAATTAATAGCACTTGAACTTCCCACCAGATCCCAAAGTAATCTTGAAGCCCATAGTGTCACAGTCAACACTTCAAAAAACTCCTTCAGGTGGGCCCCAAGATCTCCATACATGGGAAAACCATGTCAGAAAGATGAA | -0.018
GTGTGTGCGCGCGCGTGTGTGTGTGTTTTCTTAAGCCGGGCTATTCAAACCCTGCTGCAATTCTCCGGTAAACAATGTTACATGGGGCATAATGCAAATAAACGCAATGATTCATGCGCGGTTCGCGCACTTTGCAGCCGGCCCGGTGGAGCAGCCAGTGCCGGATTTCTCCCTTTTTTTGCAGATCTGCAGA | 0.426
CCCGGAGGACCCGACCGGAGAGGGCGAGAGGAGGAGGAGCCCGGGTGGCGGGAAGCGAGCCCAGGTTCCCGCGGCCTTGCGAGGGCACGCAGGGCAATCTGTGCTTTATCTTTCGCAGCGGCGATGAGCTGGTGACTTTTGGGGGTCATCCTGAGGGACATAGACGAAACTGGTTGGGAGGTAGTTAATTGCT | -0.0675

Study 4 — method: RNA Bind-n-Seq; molecule type: RNA; medium: in vitro; concentration: not given; reference: input RNA pool; reading: higher = stronger binding
Target: RING finger protein unkempt homolog, zinc fingers 1-6, GST-SBP tag (UNK, Homo sapiens, UniProt Q9C0B0, residues 30-357)
Setting: RNA with constant flanks, human and mouse sites, ends assumed
Shared flanks, not repeated: GGGAGUUCUACAGUCCGACGAUC … CAACAGAGGAUUGAGCAUCA
Target sequence (chain): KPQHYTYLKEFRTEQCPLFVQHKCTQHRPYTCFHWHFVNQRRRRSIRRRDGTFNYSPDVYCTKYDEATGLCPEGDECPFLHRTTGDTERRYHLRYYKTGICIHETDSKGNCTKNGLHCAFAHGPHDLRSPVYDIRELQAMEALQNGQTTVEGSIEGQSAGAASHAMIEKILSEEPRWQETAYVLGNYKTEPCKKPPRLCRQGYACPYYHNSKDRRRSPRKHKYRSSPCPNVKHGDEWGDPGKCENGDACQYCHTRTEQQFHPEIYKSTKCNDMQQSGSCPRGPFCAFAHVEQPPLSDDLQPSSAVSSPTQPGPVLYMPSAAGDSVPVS
Oligonucleotide | bound/input enrichment
CCAGAUACAAUAGAAAGUGAACCCAGCACAGCAGAUACCGUUGUUCCAAUCACUUGUGCUAUAGAUUCUACAGCUGAUCCACAGGUUAGCUUCAACUCUAAUUACAUUGAUAUAGAAAGU | 0.729 ratio
UCUCGAGUGCGGACGGGAAUCUGGUCGGCUGCCCUGAAUGGAGACCUGGGCCGUGUGAAGUAUUUCAUCCAGAAGGCCACAGACCCUAGCCAGCCAGAUUCUGCCGGCUACACCGCACUG | 0.0724 ratio
CGUUCUGCAUUAAGCCCCAGGUUCUCUUCUGGCUUUGAAAGGGCCCGAGUGCUCCCAGUGUAGCUUCGUCACAUCGUCACGAGCCCCUGUGGUCAUGGGCGACCUCACACCUCCCUCCCU | 0.156 ratio
AGAUUUGUCAUGAGGGAAAUCAAUGAUCGUAUUAUGAAAGUGGAGUAUCACUUCCUGUCGCCCUAUGUAUCUCCAAGAGAGUCUCCUUUCCGACAUAUCUUCUGGGGCUCUGGCUCUCAC | 0.186 ratio
GUCCAGCCAGGGAGUGUAGCAGACAGGGAUCAAAGAUUAAAGGAAAAUGAUCAAAUAUUGGCCAUUAAUCACACGCCAUUGGAUCAGAACAUUUCCCAUCAGCAAGCAAUUGCAUUAUUA | 0.461 ratio
AUGAACCUACAAAUAGUUGACAGAGCCAUUCAGGUAGUUCGAAGUGCUUUAGCUAACCAGAUAGAUUGGACAGAAAUUGGGUUAAUUGUGAAAGAAGCCCAGGCUCAAGGAGACCCUGUU | 0.399 ratio
AGGAUGGGGUUUGUUAAAGUUGUUAAGAAUAAGGCCUACUUUAAGAGAUACCAAGUGAAAUUUAGAAGACGACGAGAGGGUAAAACUGAUUAUUAUGCUCGGAAACGCUUGGUGAUACAA | 0.548 ratio
CUCUUCUUAAAUUCUACUGCAGGAACAAGUGGGGGUGCUUACGAUCACAGCUAUGUAGAACUUUUUUUGAAUUCUACAGCAGGGGCAAGUGGUGGCGCUUAUGGUAGCCAAAUGAUGGGA | 0.608 ratio

Further values, each from its own experiment
Molecule | target | assay | system | setting | scale | endpoint | result
PhoQ, residues 284 288 289 292 302 303 WVSSAF | PhoP, residues 12 14 15 18 19 NMSFL (Escherichia coli, UniProt P23836) | Sort-seq, item: YFP reporter | E. coli | PhoQ-PhoP variant library, together with: 10 µM Mg2+ | reference: high Mg2+ state, higher = stronger signaling | fold induction | 13.2

Excerpt of the above (study 4):
Oligonucleotide | bound/input enrichment
CGUUCUGCAUUAAGCCCCAGGUUCUCUUCUGGCUUUGAAAGGGCCCGAGUGCUCCCAGUGUAGCUUCGUCACAUCGUCACGAGCCCCUGUGGUCAUGGGCGACCUCACACCUCCCUCCCU | 0.156 ratio
AGGAUGGGGUUUGUUAAAGUUGUUAAGAAUAAGGCCUACUUUAAGAGAUACCAAGUGAAAUUUAGAAGACGACGAGAGGGUAAAACUGAUUAUUAUGCUCGGAAACGCUUGGUGAUACAA | 0.548 ratio
GUCCAGCCAGGGAGUGUAGCAGACAGGGAUCAAAGAUUAAAGGAAAAUGAUCAAAUAUUGGCCAUUAAUCACACGCCAUUGGAUCAGAACAUUUCCCAUCAGCAAGCAAUUGCAUUAUUA | 0.461 ratio
CUCUUCUUAAAUUCUACUGCAGGAACAAGUGGGGGUGCUUACGAUCACAGCUAUGUAGAACUUUUUUUGAAUUCUACAGCAGGGGCAAGUGGUGGCGCUUAUGGUAGCCAAAUGAUGGGA | 0.608 ratio
AUGAACCUACAAAUAGUUGACAGAGCCAUUCAGGUAGUUCGAAGUGCUUUAGCUAACCAGAUAGAUUGGACAGAAAUUGGGUUAAUUGUGAAAGAAGCCCAGGCUCAAGGAGACCCUGUU | 0.399 ratio
CCAGAUACAAUAGAAAGUGAACCCAGCACAGCAGAUACCGUUGUUCCAAUCACUUGUGCUAUAGAUUCUACAGCUGAUCCACAGGUUAGCUUCAACUCUAAUUACAUUGAUAUAGAAAGU | 0.729 ratio
AGAUUUGUCAUGAGGGAAAUCAAUGAUCGUAUUAUGAAAGUGGAGUAUCACUUCCUGUCGCCCUAUGUAUCUCCAAGAGAGUCUCCUUUCCGACAUAUCUUCUGGGGCUCUGGCUCUCAC | 0.186 ratio
